Measured values pooled from the literature.
Each line is one published result; not all experiments were run side by side. ± gives the spread as reported.
Metallo-beta-lactamase type 2: Metallo-beta-lactamase type 2 (Serratia marcescens, UniProt P52699)
KLRK1 with MICA: NKG2-D type II integral membrane protein, with MICA (KLRK1, Homo sapiens, UniProt P26718)
UniProt P26718, sequence (whole entry, looked up): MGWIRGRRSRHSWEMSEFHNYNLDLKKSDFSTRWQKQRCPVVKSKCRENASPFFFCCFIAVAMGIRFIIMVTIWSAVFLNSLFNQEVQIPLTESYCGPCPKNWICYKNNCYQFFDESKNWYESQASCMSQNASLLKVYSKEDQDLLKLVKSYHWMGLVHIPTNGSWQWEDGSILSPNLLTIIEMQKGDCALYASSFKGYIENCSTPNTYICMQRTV
UniProt Q99873, sequence (whole entry, looked up): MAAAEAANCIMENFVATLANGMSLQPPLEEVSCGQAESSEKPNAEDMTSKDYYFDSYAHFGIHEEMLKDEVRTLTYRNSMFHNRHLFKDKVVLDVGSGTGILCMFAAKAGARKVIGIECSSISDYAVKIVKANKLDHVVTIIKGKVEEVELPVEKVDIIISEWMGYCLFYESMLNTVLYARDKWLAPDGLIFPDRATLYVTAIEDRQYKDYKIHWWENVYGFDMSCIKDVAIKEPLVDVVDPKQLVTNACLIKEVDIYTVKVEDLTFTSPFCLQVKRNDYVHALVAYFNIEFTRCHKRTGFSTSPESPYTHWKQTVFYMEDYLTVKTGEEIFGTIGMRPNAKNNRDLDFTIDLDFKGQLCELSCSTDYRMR
UniProt P30101, sequence (whole entry, looked up): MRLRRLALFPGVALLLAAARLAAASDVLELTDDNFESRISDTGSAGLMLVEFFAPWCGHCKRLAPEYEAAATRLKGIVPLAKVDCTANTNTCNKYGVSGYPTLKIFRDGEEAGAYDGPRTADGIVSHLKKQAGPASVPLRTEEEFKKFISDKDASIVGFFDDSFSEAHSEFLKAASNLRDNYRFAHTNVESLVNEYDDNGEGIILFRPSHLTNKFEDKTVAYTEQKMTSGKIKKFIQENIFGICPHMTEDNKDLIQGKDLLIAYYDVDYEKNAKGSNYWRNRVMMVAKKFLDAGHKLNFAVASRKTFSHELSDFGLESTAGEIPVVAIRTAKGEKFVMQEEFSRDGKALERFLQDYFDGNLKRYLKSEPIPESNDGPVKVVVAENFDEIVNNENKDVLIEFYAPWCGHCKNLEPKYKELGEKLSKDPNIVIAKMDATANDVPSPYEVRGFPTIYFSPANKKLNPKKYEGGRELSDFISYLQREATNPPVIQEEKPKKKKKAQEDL
UniProt P78417, sequence (whole entry, looked up): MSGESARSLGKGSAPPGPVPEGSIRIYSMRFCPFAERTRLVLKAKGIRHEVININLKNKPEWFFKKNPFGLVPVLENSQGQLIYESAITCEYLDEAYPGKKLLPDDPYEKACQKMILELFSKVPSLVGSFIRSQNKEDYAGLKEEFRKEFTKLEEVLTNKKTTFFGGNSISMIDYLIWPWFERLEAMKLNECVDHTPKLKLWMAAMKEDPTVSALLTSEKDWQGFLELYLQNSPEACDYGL
UniProt Q920B6, sequence (whole entry, unmodified, looked up): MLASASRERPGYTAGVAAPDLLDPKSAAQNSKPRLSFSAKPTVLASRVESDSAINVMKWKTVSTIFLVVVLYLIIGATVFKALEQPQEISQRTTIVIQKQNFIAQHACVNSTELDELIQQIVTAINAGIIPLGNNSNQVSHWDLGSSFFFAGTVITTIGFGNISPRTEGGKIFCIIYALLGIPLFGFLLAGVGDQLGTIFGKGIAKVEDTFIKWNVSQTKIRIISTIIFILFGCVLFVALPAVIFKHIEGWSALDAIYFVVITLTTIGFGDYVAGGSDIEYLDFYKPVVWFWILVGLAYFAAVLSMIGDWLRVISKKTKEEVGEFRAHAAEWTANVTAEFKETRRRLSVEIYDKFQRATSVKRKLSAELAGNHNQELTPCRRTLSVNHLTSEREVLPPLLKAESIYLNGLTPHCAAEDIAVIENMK
UniProt O15294, sequence (whole entry, looked up): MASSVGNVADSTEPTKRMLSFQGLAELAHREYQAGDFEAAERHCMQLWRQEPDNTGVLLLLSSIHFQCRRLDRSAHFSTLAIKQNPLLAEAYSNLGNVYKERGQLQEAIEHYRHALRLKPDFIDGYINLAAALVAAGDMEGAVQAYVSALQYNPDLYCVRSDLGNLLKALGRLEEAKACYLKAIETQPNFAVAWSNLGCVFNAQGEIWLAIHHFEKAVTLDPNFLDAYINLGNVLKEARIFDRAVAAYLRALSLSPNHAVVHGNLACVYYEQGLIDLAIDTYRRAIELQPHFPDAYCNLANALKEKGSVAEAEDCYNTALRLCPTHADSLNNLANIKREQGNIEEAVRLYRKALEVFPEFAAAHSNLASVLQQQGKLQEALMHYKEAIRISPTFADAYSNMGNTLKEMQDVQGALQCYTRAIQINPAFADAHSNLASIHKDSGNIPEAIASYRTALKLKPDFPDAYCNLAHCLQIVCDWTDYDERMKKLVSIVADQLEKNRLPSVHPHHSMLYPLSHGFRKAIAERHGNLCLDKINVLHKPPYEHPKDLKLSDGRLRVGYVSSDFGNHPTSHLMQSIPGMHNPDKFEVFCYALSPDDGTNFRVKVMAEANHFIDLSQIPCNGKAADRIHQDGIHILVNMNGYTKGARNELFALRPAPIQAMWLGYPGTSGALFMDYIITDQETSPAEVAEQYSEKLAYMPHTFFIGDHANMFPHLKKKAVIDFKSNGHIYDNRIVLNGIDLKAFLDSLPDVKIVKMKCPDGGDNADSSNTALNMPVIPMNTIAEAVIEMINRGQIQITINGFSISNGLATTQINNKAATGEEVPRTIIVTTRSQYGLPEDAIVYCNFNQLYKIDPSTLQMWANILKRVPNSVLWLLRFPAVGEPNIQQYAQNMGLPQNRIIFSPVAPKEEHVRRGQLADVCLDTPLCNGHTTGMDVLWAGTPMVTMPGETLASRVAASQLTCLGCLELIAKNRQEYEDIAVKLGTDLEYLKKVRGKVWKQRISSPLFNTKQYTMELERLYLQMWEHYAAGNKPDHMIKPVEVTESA
UniProt Q01647, sequence (whole entry, unmodified, looked up): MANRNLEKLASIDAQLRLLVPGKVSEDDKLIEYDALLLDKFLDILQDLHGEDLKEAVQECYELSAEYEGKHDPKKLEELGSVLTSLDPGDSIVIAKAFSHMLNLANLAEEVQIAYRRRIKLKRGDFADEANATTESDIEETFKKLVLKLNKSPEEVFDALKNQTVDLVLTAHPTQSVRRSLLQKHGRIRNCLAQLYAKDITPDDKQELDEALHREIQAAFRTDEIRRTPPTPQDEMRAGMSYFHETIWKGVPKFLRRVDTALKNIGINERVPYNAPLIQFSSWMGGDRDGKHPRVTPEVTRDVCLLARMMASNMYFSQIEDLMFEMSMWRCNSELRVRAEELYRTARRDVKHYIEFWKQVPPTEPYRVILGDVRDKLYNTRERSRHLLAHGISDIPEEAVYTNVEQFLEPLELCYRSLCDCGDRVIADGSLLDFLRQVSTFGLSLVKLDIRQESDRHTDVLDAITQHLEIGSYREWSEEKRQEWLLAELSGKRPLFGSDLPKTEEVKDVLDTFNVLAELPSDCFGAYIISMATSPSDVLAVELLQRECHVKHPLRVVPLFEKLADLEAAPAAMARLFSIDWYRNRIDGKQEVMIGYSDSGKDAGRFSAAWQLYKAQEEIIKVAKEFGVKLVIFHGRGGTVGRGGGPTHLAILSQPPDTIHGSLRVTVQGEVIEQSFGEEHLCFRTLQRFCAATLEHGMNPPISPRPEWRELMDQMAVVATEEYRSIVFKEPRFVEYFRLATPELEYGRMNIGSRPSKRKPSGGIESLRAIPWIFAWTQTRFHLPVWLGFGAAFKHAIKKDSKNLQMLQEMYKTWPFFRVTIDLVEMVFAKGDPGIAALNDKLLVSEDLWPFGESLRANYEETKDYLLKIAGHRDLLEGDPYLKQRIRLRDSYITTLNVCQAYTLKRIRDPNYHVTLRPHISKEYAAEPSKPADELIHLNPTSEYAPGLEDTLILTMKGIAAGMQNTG
UniProt P05067, sequence (whole entry, looked up): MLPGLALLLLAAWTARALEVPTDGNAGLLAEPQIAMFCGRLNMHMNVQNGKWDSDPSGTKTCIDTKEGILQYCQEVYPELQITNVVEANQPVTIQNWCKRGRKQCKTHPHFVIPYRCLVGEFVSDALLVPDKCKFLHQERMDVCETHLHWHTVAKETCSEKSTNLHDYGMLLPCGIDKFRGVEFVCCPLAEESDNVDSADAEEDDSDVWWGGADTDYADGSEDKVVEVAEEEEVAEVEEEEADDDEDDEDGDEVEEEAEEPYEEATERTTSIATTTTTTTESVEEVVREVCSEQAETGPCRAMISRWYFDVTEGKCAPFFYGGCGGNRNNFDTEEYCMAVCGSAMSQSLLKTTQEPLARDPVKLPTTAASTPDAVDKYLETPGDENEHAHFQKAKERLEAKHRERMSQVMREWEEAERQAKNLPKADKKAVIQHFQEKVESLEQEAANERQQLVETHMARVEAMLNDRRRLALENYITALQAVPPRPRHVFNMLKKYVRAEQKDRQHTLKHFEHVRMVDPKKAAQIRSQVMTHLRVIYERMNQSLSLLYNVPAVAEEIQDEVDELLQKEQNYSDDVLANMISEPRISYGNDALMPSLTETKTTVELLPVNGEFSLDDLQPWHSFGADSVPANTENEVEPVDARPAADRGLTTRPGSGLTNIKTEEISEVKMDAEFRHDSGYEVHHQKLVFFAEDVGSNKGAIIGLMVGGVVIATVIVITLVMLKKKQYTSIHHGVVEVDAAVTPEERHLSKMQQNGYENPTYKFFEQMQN
UniProt P30969, sequence (whole entry, looked up): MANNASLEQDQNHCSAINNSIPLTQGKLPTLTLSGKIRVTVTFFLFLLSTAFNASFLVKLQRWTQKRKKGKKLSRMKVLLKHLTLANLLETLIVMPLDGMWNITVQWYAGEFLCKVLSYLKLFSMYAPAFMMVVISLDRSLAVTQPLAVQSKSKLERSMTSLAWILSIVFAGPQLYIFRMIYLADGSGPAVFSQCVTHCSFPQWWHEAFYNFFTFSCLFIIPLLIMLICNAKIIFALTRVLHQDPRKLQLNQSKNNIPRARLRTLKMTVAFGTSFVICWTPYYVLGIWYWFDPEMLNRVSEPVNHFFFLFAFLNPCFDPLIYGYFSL

Compound | target | assay | test system | setting | IC50 [µM]
COC(=O)C1CN1S(=O)(=O)c1c(C)cc(C)cc1C (centres unmarked) | PDIA3 (Homo sapiens, UniProt P30101) | enzyme activity, inhibitor, absorbance |  | pH 7.6 | 190
CC[N+](CC)(CC)CC | Potassium channel protein kcv, L70A in three subunits (A250R, Paramecium bursaria Chlorella virus 1, UniProt Q84568, L70A) |  |  |  | 8500 ± 1200
COC(=O)C[C@H](NC(=O)[C@H](C)NC(=O)[C@@H](NC(=O)[C@H](CC(=O)OC)NC(=O)[C@@H](NC(=O)c1ccc2ccccc2n1)C(C)C)C(C)C)C(=O)COc1c(F)cccc1F | Caspase-2 (Homo sapiens, UniProt P42575) | enzyme activity, inhibitor |  | 45 min preincubation, with: Ac-VDVAD-pNA | 0.127 ± 0.025
O=C(O)CCc1c(C(=O)O)[nH]c2ccccc12 | Metallo-beta-lactamase type 2 | inhibitor |  | 10 min preincubation, with: FC5 fluorogenic substrate | 3.9
COc1ccc(-c2ccc(OC)c(NC(=O)[C@H](C)CS)c2)nn1 | blaNDM-1 (Klebsiella pneumoniae, UniProt C7C422) | enzyme activity, inhibitor, fluorescence |  | with preincubation | 1.27
CCCCC[N+](CCCCC)(CCCCC)CCCCC | Kcnk2 (Rattus norvegicus, UniProt Q920B6, T157C) | ion current, inhibitor, inside-out patch clamp |  |  | 123 ± 11
O=C(CCS)Nc1ccccc1-c1nn[nH]n1 | Metallo-beta-lactamase type 2 | inhibitor |  | 10 min preincubation, with: FC5 substrate | 10.2
CC(C)C[C@H](NC(=O)[C@@H](CCCNC(=N)N)NC(=O)[C@H](Cc1c[nH]cn1)NC(=O)[C@H](CO)NC(=O)[C@H](Cc1c[nH]c2ccccc12)NC(=O)[C@H](Cc1c[nH]cn1)NC(=O)[C@@H]1CCC(=O)N1)C(=O)N[C@@H](CCCNC(=N)N)C(=O)N1CCC[C@H]1C(=O)NCC(N)=O | Gonadotropin-releasing hormone receptor (Rattus norvegicus, UniProt P30969) | ligand displacement in cells, radioligand |  |  | 0.0223
CN(C)C(=O)[C@@H](NC(=O)c1cnccc1-c1ccc(C(F)(F)F)cc1)c1cccc(C(F)(F)F)c1 | KLRK1 with MICA | ligand binding, inhibitor, TR-FRET | HEK293 expressing NKG2D and DAP10 | with: MICA-Alexa647 | 0.4 ± 0.1
NC[C@@H](CC[C@H](N)C(=O)O)C[C@H]1O[C@@H](n2cnc3c(N)ncnc32)[C@H](O)[C@@H]1O | N6-adenosine-methyltransferase catalytic subunit, with METTL14 (METTL3, Homo sapiens, UniProt Q86U44) | enzyme activity, inhibitor, radiometric |  | METTL3-METTL14 complex | 3.4
COc1ccc(CN(CCC(c2ccccc2)c2ccc(OC(C)C)cc2)C(=O)CCl)cc1OC (centres unmarked) | GSTO1 (Homo sapiens, UniProt P78417) | enzyme activity, inhibitor |  |  | < 0.4
NC[C@@H]1O[C@H](O[C@H]2[C@@H](O)[C@H](O[C@@H]3[C@@H](O)[C@H](N)C[C@H](N)[C@H]3O[C@H]3O[C@H](CN)[C@@H](O)[C@H](O)[C@H]3N)O[C@@H]2Cn2cc(-c3ccc(-c4cn(C[C@H]5O[C@@H](O[C@@H]6[C@@H](O)[C@H](N)C[C@H](N)[C@H]6O[C@H]6O[C@H](CN)[C@@H](O)[C@H](O)[C@H]6N)[C@H](O)[C@@H]5O[C@H]5O[C@@H](CN)[C@@H](O)[C@H](O)[C@H]5N)nn4)cc3)nn2)[C@H](N)[C@@H](O)[C@@H]1O | HIV-1 TAR RNA | ethidium displacement |  | pH 6.8 | 0.067
CC[C@H](C)[C@@H]1NC(=O)[C@H](CC(C)C)NC(=O)[C@H](C)NC(=O)[C@H](CCCNC(=N)N)NC(=O)[C@H](CC(C)C)NC(=O)[C@H]([C@@H](C)O)NC(=O)[C@H](CCCNC(=N)N)NC(=O)[C@@H]2CCCN2C(=O)[C@H](Cc2c[nH]cn2)NC(=O)[C@H](CC(C)C)NC(=O)[C@H]([C@@H](C)CC)NC(=O)[C@H]([C@@H](C)CC)NC(=O)[C@H](Cc2ccccc2)NC(=O)[C@H](Cc2ccc(O)cc2)NC(=O)CSC[C@@H](C(=O)NCC(N)=O)NC(=O)[C@H]([C@@H](C)CC)NC(=O)[C@H](C(C)C)NC1=O | NNMT (Homo sapiens, UniProt P40261) | enzyme activity, inhibitor, mass spectrometry |  |  | 0.772
N[C@@H](Cc1ccc(O)cc1)C(=O)N1Cc2ccccc2C[C@H]1C(=O)N[C@@H](Cc1ccccc1)C(=O)N[C@@H](Cc1ccc(NC(=O)CBr)cc1)C(=O)N[C@@H](CC(=O)O)C(=O)NCCOCCOCCNC(=O)CCCC[C@@H]1SC[C@@H]2NC(=O)N[C@@H]21 | Oprd1 (Mus musculus, UniProt P32300) | ligand displacement, radioligand |  |  | 0.0104
Nc1ncnc2c1ncn2[C@@H]1O[C@H](CSCCNC(=O)NCCc2ccccc2)[C@@H](O)[C@H]1O | PRMT1 (Homo sapiens, UniProt Q99873) | enzyme activity, inhibitor, radiometric |  |  | > 50
CC(=O)N[C@@H](CCCNC(=N)N)C(=O)N[C@H](C(=O)N1CCC[C@H]1C(=O)N[C@@H](COP(=O)(O)O)C(=O)N[C@@H](CC(C)C)C(=O)N1CCC[C@H]1C(=O)N[C@@H](C(=O)N1CCC[C@H]1C(c1ccccc1)c1ccccc1)C(C)C)[C@@H](C)O | YWHAZ (Homo sapiens, UniProt P63104) | peptide binding, inhibitor, competitive fluorescence polarization |  | 10 µM protein, with: 100 nM FAM-labelled diphosphorylated Tau peptide | 7.6
CSc1ccc2c(c1)C(N1CCN(C)CC1)Cc1ccccc1S2 (centres unmarked) | 5-hydroxytryptamine receptor 2A (5-HT1A, Drosophila melanogaster, UniProt P28285) | calcium response, antagonist, calcium imaging | HEK293T | with: 5-HT near EC50 | 27
COc1ccccc1[C@@H](NS(=O)(=O)c1cc2ccc(O)nc2cc1Cl)C(=O)N(CC(=O)NCCn1cc(COCCOCCOCC(=O)N[C@H](C(=O)N2C[C@H](O)C[C@H]2C(=O)NCc2ccc(-c3scnc3C)cc2)C(C)(C)C)nn1)Cc1cccs1 | OGT (Homo sapiens, UniProt O15294) | enzyme activity, inhibitor, fluorescence |  |  | 0.61
O=C(O)CC(O)C(=O)O (centres unmarked) | PPCA1 (Flaveria pringlei, UniProt Q01647, R885G) | enzyme activity, inhibitor |  | with: PEP at 2 × Km | 8700
CC1(C)C=Cc2c(cc3oc(-c4ccccc4)cc(=O)c3c2O)O1 | APP (Homo sapiens, UniProt P05067) | amyloid aggregation, inhibitor, fluorescence |  |  | 180
CNC(=O)N=C(NCCC[C@@H]1NC(=O)[C@@H](C)NC(=O)C[C@@H](C(=O)O)NC(=O)C[C@@H](C(=O)O)NC(=O)[C@H](Cc2ccccc2)N(C)C1=O)NC(=O)NC | Endochitinase B1 (Aspergillus fumigatus, UniProt Q873X9) | enzyme activity, inhibitor, fluorometric |  | 10 min, pH 5.5, 37 °C, with: 20 µM 4-MU-chitobiose | 50
CNC(=O)C(NC(=O)c1ccccc1-c1ccc(C(F)(F)F)cc1)c1cccc(C(F)(F)F)c1 (centres unmarked) | KLRK1 with MICA | ligand binding, inhibitor, TR-FRET | HEK293 expressing NKG2D and DAP10 | with: MICA-Alexa647 | 7.4 ± 1.5
CCn1nc(-c2cccnc2)nc2c(=O)n(C)c(=O)nc1-2 | TPR (Trypanosoma brucei brucei, UniProt P39051) | inhibitor, DTNB-coupled colourimetric |  | with: substrate at Km | > 100

Repeated from above:
Compound | target | assay | test system | setting | IC50 [µM]
CC[N+](CC)(CC)CC | Potassium channel protein kcv, L70A in three subunits (A250R, Paramecium bursaria Chlorella virus 1, UniProt Q84568, L70A) |  |  |  | 8500 ± 1200
COC(=O)C[C@H](NC(=O)[C@H](C)NC(=O)[C@@H](NC(=O)[C@H](CC(=O)OC)NC(=O)[C@@H](NC(=O)c1ccc2ccccc2n1)C(C)C)C(C)C)C(=O)COc1c(F)cccc1F | Caspase-2 (Homo sapiens, UniProt P42575) | enzyme activity, inhibitor |  | 45 min preincubation, with: Ac-VDVAD-pNA | 0.127 ± 0.025
